Measured values from different studies.
Every numbered part comes from another study and shows a few of its results, in no order. Changes are numbered by the printed parent chain.

Sample 1 — technique: RNA Bind-n-Seq; form: RNA; matrix: in vitro; concentration: 200 nM; notes: whole 134-nt RNA, ends assumed; with: 150 mM KCl; reference: input library; reading: higher = stronger binding
Target: Ras GTPase-activating protein-binding protein 1, full length (G3BP1, Homo sapiens, UniProt Q13283)
UniProt Q13283, sequence (whole entry, looked up): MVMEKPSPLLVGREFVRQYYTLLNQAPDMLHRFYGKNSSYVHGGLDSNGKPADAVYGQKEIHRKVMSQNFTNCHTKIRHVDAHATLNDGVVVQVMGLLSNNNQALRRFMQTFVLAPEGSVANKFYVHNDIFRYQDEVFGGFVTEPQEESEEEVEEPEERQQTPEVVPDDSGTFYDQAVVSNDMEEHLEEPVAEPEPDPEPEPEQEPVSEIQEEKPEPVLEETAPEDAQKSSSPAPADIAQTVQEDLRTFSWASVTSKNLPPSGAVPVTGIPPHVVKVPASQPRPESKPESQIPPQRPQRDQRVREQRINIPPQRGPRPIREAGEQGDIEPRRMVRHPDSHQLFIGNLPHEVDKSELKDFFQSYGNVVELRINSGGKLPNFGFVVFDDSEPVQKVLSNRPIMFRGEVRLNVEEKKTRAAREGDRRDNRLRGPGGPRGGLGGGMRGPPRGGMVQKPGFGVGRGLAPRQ
Constant ends, left off below: GGGAGUUCUACAGUCCGACGAUC … UGGAAUUCUCGGGUGUCAAGG
Strand	log2 enrichment
ACCAUGCAGGUGGGCAUCUUUGGGCAGUGGGGCAAGGGGGGGAUAGGGAGGGGGGUAACACUUUGGGAACAGGUGGUCCCAGGUCGUUUC	1.22
CAAGUCCUGUGCUACACAUCGUAUGUACCGAAUCGGCCCGGCCCGGGGCCCGGGGAAAGUAUUAUGUUACGCCGUUCGGAUCUGCACUUC	-0.53
ACCAUGCAGGUGGGCAUCUUUGAGAAGUGGGGCAAGGGGGGGAUAGGGAGGGGGGUAACACUUUGGGAACAGGUGGUCCCAGGUCGUUUC	1.38
UAACUUUAGAGGAGGAUCUGAUGGAUAUGGCAGUGGACAUGGAUUUGGGGAUGGCUAUAAUGGGUAUGGAGGAGGACCUGGAGGUGGCAA	0.259
CAAGUCCUGUGCUACACAUCGUAUGUACCGAAUCGGAAAAAGGUUUGGUUUUUGGAAAGUAUUAUGUUACGCCGUUCGGAUCUGCACUUC	-1.01
UGGCCCUGGUGGCAUGCGGGGAGGAAGAGGUGGCCUCAUGGAUCGUGGUGGUCCCGGUGGAAUGUUGAGAGGUGGCCGUGGUGGAGACAG	0.331
UUUUAUUCUUCCAUCUUUUCCCACAGGUGGCAGCUGCCAACAAGAAGCAUUAGAACAAACCAUGCUGGGUUAAUAAAUUGCCUCAUUCGU	-0.179
UGGUUCUGGCAUUUAUGACCCUUGUGAAAAAGAAGCCACUGAUGCUAUUGGGCAUCUAGACAGACAGCAACGGGAAGAUAUCACACAGAG	-0.539
UUCCUCAAGUCCUGUGCUACACAUCGUAUGUACCGAAUCGGUGGUGGAGGAAAGUAUUAUGUUACGCCGUUCGGAUCUGCACUUCCAGCA	-0.756
UCAAGUCCUGUGCUACACAUCGUAUGUACCGAAUCGGGGAAAGGAAAGGAAAGGGAAAGUAUUAUGUUACGCCGUUCGGAUCUGCACUUC	-0.737
CUGUGCUACACAUCGUAUGUACCGAAUCAAACCCCCCCAAACCCCCCCAAACCCCCCCAAAAAAGUAUUAUGUUACGCCGUUCGGAUCUG	0.953
UGGGAAGUGGAUUUUGUUUAUUUUUUUAGCUCAUUUCCAGGGGUGGGAAUUUUUUUUUAAUAUGUGUCAUGAAUAAAGUUGUUUUUGAAA	-0.237
UAACUUUAGAGGAGGAUCUGAUGGAUAUGGCAGUGGACGUGGAUUUGGGGAUGGCUAUAAUGGGAAUGGAGGAGGACCUGGAGGUGGCAA	0.362
UGCCUUGCAGAUACGUGGCUUUCCUGAAGCUGUUCCUGGAGACGGCGGAGAAGCACUUCAUGGUGGGCCACCGUGUCCACUACUAUGUCU	-1.41

Sample 2 — technique: protein-binding microarray; form: double-stranded DNA, one strand shown; matrix: in vitro; concentration: 0.8 µM; notes: whole 60-bp probe, no competitor; reading: higher = stronger binding; constant ends, left off below: … GTCTTGATTCGCTTGACGCTGCTG
Target: Centromere-binding protein 1, full length, N-terminal tag (CBF1, Saccharomyces cerevisiae, UniProt P17106, residues 1-351)
UniProt P17106, sequence (whole entry, looked up): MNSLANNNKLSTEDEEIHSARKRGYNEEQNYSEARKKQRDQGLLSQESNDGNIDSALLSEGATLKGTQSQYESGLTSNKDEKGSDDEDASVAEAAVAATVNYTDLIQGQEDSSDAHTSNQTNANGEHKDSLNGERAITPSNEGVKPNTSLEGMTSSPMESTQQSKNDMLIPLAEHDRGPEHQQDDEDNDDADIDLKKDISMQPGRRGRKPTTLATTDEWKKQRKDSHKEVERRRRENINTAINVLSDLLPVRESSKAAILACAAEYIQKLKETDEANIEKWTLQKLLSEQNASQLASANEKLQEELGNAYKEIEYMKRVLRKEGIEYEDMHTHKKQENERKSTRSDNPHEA
Strand	fluorescence intensity
GAATAAAAGGTAACGCCCACCACGTTCGCCACCTAG	518 a.u.
CCTAACTACTATAGTGGTCGCGCATAGCTTCGTACA	494 a.u.
CCTAACTACTATAAGAGCGTGGGATAGCTTCGTACA	513 a.u.
GAAACCATAACACCCGTGATGACAACAACAGGATAG	846 a.u.
CCTAACTACTATAGCACCGTCACATAGCTTCGTACA	520 a.u.
CTATTACAAGAAAGTCTGATGAAATTTTTCTTTTTC	541 a.u.
CTAATATATATAGAACACCACCCTTGGAAAACATTC	507 a.u.
CTATCAGCTTTAGCAAGCGTGCATGCAAATAAGTTC	564 a.u.
CTAGTGCTGCCCCGCCACATGCAATCGGGCCGTTTC	535 a.u.
CTAAAACGCTTCGGTAATCTGGTGAAATGATTGTTC	519 a.u.
CTATATGTTTTCACGTGAGTGGCTCGTTTCTCGTTC	4860 a.u.
CTAGTTGTCGTACCCCATGTGCCCTATTCTTTGTTC	641 a.u.
GAATTTTACTTGCACGTGACCAAGAATGGTAATTAG	35400 a.u.
CTAGTAGAAAAGTATTACATCAGCACGAGTAACTTC	651 a.u.
CTAGCGTTTCCTACGCACCTGCTAAAGACCTGATTC	649 a.u.
CTAGCATCGCATTACCTCATGATGAGTAAATAGTTC	620 a.u.
CTAGATTTTTGTGACGGTGACGTACGATCTCTATTC	534 a.u.
GAAGTTAACTTTCATCTGATCAGGAATATGAAATAG	700 a.u.
TGTACGAAGCTATCTTCCGTGCATATAGTAGTTAGG	526 a.u.
CCTAACTACTATAATAGTGTGACATAGCTTCGTACA	555 a.u.
CTAGATAGATGGCCGAACGTGGACTGCCTCTATTTC	500 a.u.
GAACAAATTATGGAACACGTTCGGAATATTACTTAG	718 a.u.

Sample 3 — technique: DHFR PCA, deep sequencing; matrix: yeast; with: (+)-ABA 0.39 µM; reference: wild-type fitted maximum; reading: higher = stronger binding
Target: ABI1, truncated, D143A, DHFR fusion (Arabidopsis thaliana)
Notes: methotrexate growth selection, single substitutions
Starting sequence: PYL1, truncated, DHFR fusion (Arabidopsis thaliana); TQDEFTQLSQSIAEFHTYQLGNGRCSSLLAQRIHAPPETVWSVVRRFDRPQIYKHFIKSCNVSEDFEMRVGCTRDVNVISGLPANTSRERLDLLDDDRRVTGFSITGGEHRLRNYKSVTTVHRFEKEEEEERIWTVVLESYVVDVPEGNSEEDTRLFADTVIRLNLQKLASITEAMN; partner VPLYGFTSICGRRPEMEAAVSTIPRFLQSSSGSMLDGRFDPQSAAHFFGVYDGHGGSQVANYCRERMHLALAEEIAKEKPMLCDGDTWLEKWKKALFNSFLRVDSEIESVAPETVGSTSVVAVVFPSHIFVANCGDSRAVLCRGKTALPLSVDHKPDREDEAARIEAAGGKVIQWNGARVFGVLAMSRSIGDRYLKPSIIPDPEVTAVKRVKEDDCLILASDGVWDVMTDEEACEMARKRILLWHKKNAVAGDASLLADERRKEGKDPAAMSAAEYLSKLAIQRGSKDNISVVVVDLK
Change	relative binding score
P36I	-6.33%
R132S	72.7%
E151F	-4.72%
S63Y	0.554%
S63G	57.4%
G102Y	-7.14%
T106V	83.5%
S59W	7.72%
A175W	7.04%
G71I	-13.7%
E38R	-3.08%
F5H	18.5%
E131K	67.7%
R98C	9.6%
G23A	8.96%

Sample 4 — technique: RNA Bind-n-Seq; form: RNA; matrix: in vitro; concentration: 365 nM; reference: no-protein control; reading: higher = stronger binding
Target: RNA binding protein fox-1 homolog 2, RRM domain, GST-SBP tag (RBFOX2, Homo sapiens, UniProt O43251-10, residues 100-194)
Notes: natural RNA segment, single round, ends assumed
Constant ends, left off below: GGGAGUUCUACAGUCCGACGAUC … UGGAAUUCUCGGGUGCCAA
Construct (chain): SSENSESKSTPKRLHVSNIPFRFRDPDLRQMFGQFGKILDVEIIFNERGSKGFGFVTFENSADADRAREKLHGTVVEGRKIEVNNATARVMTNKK
Strand	RBNS enrichment (R)
AAUACUUGGAAGGCAGUAAUUGUGAGUGACACCUCAGUUCAUCAACCCCUUAAUAAUAUCAGCUUAAUUUUAAUGACAACUAAAUAUGCUGAAGUGAGGAUUUAGUAUUU	0.531
AAGUCCCAGUCACCUUCCUGGCCUCACUGUCCUCAGCUGUAACCUGGGCAUUUGAGAGGUACAGGCAGAAGAGAAGACAAUCAUGGUCUGAUUAGUUGAGUGACAGGAGU	0.309
CCCACCCUAAGCGAACGGUAAGAAGGCCUCUCUUAAGAAGGGGAGACAGAUGGUCCUUAACUACUCAAUGACAGAGGCAGUUACUGUGAGAGACUUCUAGGAAUCUUUUU	0.448
CUCUCCCACCCUGGGGGCAGGGUUCUAAGUAUGGGGAGUUCUUAUGCUGGCUUUUAGUGGUGUGUGUAGUUUGCUUGUAAGGGUGGGUUUGGCCCUGCAGGCCAGCUGUU	1.3
CCAGGCCUGACUGGGGUAAGAAACAUGCCUCCACUUUACAGAGGUAGCUAUGGGUUUGGAACACUGGACUUGACUAUGGGGUGCUGGGAGUCAAGUCUCAGCUUUACCAC	0.321
UCAAGACAGCUCCAGUAUCAUGCAGCUUUUUAUGUUUGCACUCAAAAAGCCAGUGCCUUCUGGCUGGUGCCGAGGCUUGGGUGAAAUGUUAAAUAUGCACUGACCUCAGA	0.533
CCCCAACGCGUCCUCUCACACCGUCCACUGUGCGUUUGUAUGUGUCUGGGAUCCAGGGCAAUGUGAAUUUUCUUUUUAUUUGGGAGAUUGUUCACGGAAAACAGAUCUUC	0.267
CUGAGUUUAAUUUAAUAUGUAAUACAUAUGGUAAUUGUAGGGUAAUACCCACAACAACUGUAGUUUCUUACUUGGCCAAGAGAAUGCUUAUUUAAGUGUUAGACUUCCAU	0.22
GACUCUACACAAGAUUAUUUAACAGGACACUAAGAUGGGGAAACGUCCUCGUGAGAUGAGAGCCUGAGCCAGGCAGCAGAGCGCUCGCUGCUGUGUAGACUGUAGGCUGC	0.617
AGUUGAGUCAUUUCGCAAACAUUUACUGAGCACCUCCUGUGUGCCAGGCUCCUAGAAAGACAGGGAGUUGGUGCCCUGCACAGAUGACAAACUGCCCCAGACAGCAGACA	0.371
GAGAAACCUGUAUCUUUCUAUGCUGCUUUUAUAUCUGUAUGUAUUAGUGAUAUUUCUCUAGUAGUUAAAAAAAAAAAAAGGAAAAAAAGACUCUUUUUGGUUGUCCUCAA	0.941
GGAUUUGGGACCUAAAAUACUCCUCAGGUUGAUGUAUUCAUGAAGUUUUAAAACAUCUUUAGUUUUCAAAGUAAACUGGAUAUGUGGACCUUAAAGUUAUUGAGUUUAAG	0.344

Excerpt of the above (sample 2):
Strand	fluorescence intensity
CTAGATTTTTGTGACGGTGACGTACGATCTCTATTC	534 a.u.
GAAGTTAACTTTCATCTGATCAGGAATATGAAATAG	700 a.u.
TGTACGAAGCTATCTTCCGTGCATATAGTAGTTAGG	526 a.u.
CCTAACTACTATAATAGTGTGACATAGCTTCGTACA	555 a.u.
